Assay results from different studies.
Each line is one published result; not all experiments were run side by side. Converted amounts (≈) assume the structure as drawn.
Sequence of UniProt Q13557 (whole entry, looked up): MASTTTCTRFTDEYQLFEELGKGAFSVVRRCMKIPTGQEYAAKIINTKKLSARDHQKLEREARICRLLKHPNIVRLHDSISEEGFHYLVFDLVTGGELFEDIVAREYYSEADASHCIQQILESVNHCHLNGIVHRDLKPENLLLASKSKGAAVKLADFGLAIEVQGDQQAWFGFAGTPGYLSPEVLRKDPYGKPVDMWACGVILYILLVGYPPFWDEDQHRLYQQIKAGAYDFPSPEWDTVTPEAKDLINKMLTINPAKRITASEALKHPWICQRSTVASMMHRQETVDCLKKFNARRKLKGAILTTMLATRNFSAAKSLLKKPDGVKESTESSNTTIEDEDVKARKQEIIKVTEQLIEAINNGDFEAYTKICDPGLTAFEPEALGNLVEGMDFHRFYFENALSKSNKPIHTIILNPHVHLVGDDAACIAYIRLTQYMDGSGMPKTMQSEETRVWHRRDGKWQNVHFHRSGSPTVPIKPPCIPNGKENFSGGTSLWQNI

`C#Cc1cc(O)c(C=NNC(=O)c2ccc(Br)cc2Br)cc1C#C` has an MIC80 of 16 µg/mL (≈ 35.9 µM) (Aspergillus fumigatus; microbial growth; 48 h, pH 6.5).
With `COC(=O)c1cc(-c2cccc(NC(=O)Nc3cccc(C#N)c3)c2)on1` the MIC was greater than 64 µg/mL (Mycobacteroides abscessus; microbial growth, broth dilution; ATCC19977; 48 h).
The MIC of `Oc1c(Br)cc(Br)cc1-c1[nH]c(Br)c(Br)c1Br` is reported as 16 µM (Klebsiella aerogenes; microbial growth; ATCC35029).
For `CC(C)[C@@H]1NC(=O)[C@@H](CCCNC(=N)N)NC(=O)[C@H]([C@@H](C)O)NC(=O)[C@@H](CCN)NC(=O)[C@H](Cc2ccccc2)NC(=O)[C@@H](Cc2ccccc2)NC1=O`, the IC50 was 9.42 µM (Balamuthia mandrillaris; parasite growth, ATP luminescence).
The MIC of `COC(=O)c1cc(-c2cccc(NC(=O)Nc3c(C)cccc3C)c2)on1` is reported as greater than 64 µg/mL (Mycobacteroides abscessus; microbial growth, broth dilution; ATCC19977; 48 h).
`CC(C)[C@@H]1NC(=O)[C@@H](CCCCN)NC(=O)[C@H]([C@@H](C)O)NC(=O)[C@H](Cc2ccccc2)NC(=O)[C@@H](Cc2ccccc2)NC(=O)[C@H]([C@@H](C)O)NC(=O)[C@@H](CCCN)NC1=O` gave an IC50 of greater than 16 µg/mL (Balamuthia mandrillaris; parasite growth, ATP luminescence).
The MIC80 of `C#Cc1ccc(O)c(C=NNC(=O)c2ccc(Br)c(Br)c2)c1` is reported as 2 µg/mL (≈ 4.74 µM) (Aspergillus fumigatus; microbial growth; 48 h, pH 6.5).
`Cc1ccc(NNC(=O)c2nnc(CC34CC5CC(CC(C5)C3)C4)o2)cc1` has an inhibition of 76.9% (Fusarium oxysporum; microbial growth; 50 µg/mL).
With `Cc1noc(C)c1CC(=O)N1CCOc2c(O)cc(Br)cc2C1` the EC50 was greater than 15.2 µM (Leishmania mexicana; parasite growth; intracellular, amastigote).
`O=C(NNc1ccc(Cl)c(Cl)c1)c1nnc(CC23CC4CC(CC(C4)C2)C3)o1` has an inhibition of 100% (Sclerotinia sclerotiorum; microbial growth; 50 µg/mL).
The MIC of `O=C(Nc1cccc(-c2cc(C(=O)O)no2)c1)Nc1ccc(Cl)c(Cl)c1` is reported as greater than 64 µg/mL (Mycobacteroides abscessus; microbial growth, broth dilution; ATCC19977; 48 h).
For `CC(C)[C@@H]1NC(=O)[C@@H](CCCCN)NC(=O)[C@H](CCCN)NC(=O)[C@@H](CCCN)NC(=O)[C@H](C)NC(=O)[C@H](Cc2c[nH]c3ccccc23)NC(=O)[C@@H](Cc2ccccc2)NC1=O`, the IC50 was greater than 16 µg/mL (Balamuthia mandrillaris; parasite growth, ATP luminescence).
`CO/C=C(/C(=O)OC)c1ccccc1Oc1cc(Oc2ccccc2C#N)ncn1` has an inhibition of 33.7% (Fusarium oxysporum; microbial growth; 50 µg/mL).
With `O=c1ccc2nc3ccc(O)cc3oc-2c1` the MIC was greater than 32 µg/mL (Acinetobacter baumannii; microbial growth; 24 h).
For `Nc1ncnc2c([C@@H]3N[C@H](CO)[C@@H](O)[C@H]3O)c[nH]c12`, the inhibition was 2% (human respiratory syncytial virus; viral replication, inhibitor; MA104; 2.8 µM).
`[2H]c1c([2H])c([C@]2([2H])CCCN2C(=O)C(C)(C)Oc2ccc3cn[nH]c3c2)c([2H])c([2H])c1C([2H])([2H])[2H]` has a remaining binding of 72% (CAMK2D (Homo sapiens, UniProt Q13557); binding, competition with immobilised ligand; 1 µM).
`C#Cc1cccc(C(=O)NN=Cc2cc(C#C)ccc2O)c1` gave an MIC80 of 4 µg/mL (≈ 13.9 µM) (Aspergillus fumigatus; microbial growth; 48 h, pH 6.5).
`C[C@@H]1[C@H](O)[C@@H](C)/C=C/C=C/C=C/C=C/C=C/C=C/C=C/[C@H](O[C@@H]2O[C@H](C)[C@@H](O)[C@H](N)[C@@H]2O)C[C@@H]2O[C@](O)(C[C@@H](O)C[C@@H](O)[C@H](O)CC[C@@H](O)C[C@@H](O)CC(=O)O[C@H]1C)C[C@H](O)[C@H]2C(=O)O` gave an IC90 of 0.33 µg/mL (≈ 0.357 µM) (Leishmania donovani; parasite growth, resazurin; 72 h, promastigote).
`COC(=O)c1cc(-c2cccc(NC(=O)Nc3cccc(C(F)(F)F)c3)c2)on1` gave an MIC of greater than 64 µg/mL (Mycobacteroides abscessus; microbial growth, broth dilution; ATCC19977; 48 h).
`C#Cc1ccc(C(=O)NN=Cc2cccc(C#C)c2O)cc1` has an MIC80 of 4 µg/mL (≈ 13.9 µM) (Aspergillus fumigatus; microbial growth; 48 h, pH 6.5).
`O=C(NNc1ccccc1)c1nnc(CC23CC4CC(CC(C4)C2)C3)o1` has an inhibition of 69.7% (Fusarium oxysporum; microbial growth; 50 µg/mL).
`Cn1cc2c3c1C(=O)C(N)=CC3=[N+](C)CC2` has an IC50 of 0.365 µM (Babesia divergens; parasite growth, SYBR Green; 60 h, blood stage).
For `O=C(NNc1ccc(F)c(F)c1)c1nnc(CC23CC4CC(CC(C4)C2)C3)o1`, the inhibition was 100% (Sclerotinia sclerotiorum; microbial growth; 50 µg/mL).
The MIC80 of `C#Cc1cccc(O)c1C=NNC(=O)c1ccc(Br)c(Br)c1` is reported as 8 µg/mL (≈ 19 µM) (Aspergillus fumigatus; microbial growth; 48 h, pH 6.5).
With `COc1c([N+](=O)[O-])oc2ccc3ccccc3c12` the MIC90 was greater than 32 µg/mL (Mycolicibacterium smegmatis; microbial growth, resazurin; MC^2155).
`COC(=O)c1cc(-c2cccc(NC(=O)Nc3cc(OC)ccc3OC)c2)on1` gave an MIC of greater than 64 µg/mL (Mycobacteroides abscessus; microbial growth, broth dilution; ATCC19977; 48 h).
The IC50 of `NCCCC[C@@H]1NC(=O)[C@@H](CCCN)NC(=O)[C@@H](Cc2ccccc2)NC(=O)[C@H](Cc2ccccc2)NC(=O)CNC1=O` is reported as greater than 16 µg/mL (Balamuthia mandrillaris; parasite growth, ATP luminescence).
For `O=C(NNc1cc(F)ccc1F)c1nnc(C23CC4CC(CC(C4)C2)C3)o1`, the inhibition was 76.5% (Sclerotinia sclerotiorum; microbial growth; 50 µg/mL).
`COC(=O)c1cc(-c2cccc(NC(=O)Nc3ccc(Cl)cc3Cl)c2)on1` gave an MIC of greater than 64 µg/mL (Acinetobacter baumannii; microbial growth, broth dilution; BAA1605).
With `CC(=O)N1CCN(c2ccc(OCC3COC(Cn4ccnc4)(c4ccc(Cl)cc4Cl)O3)cc2)CC1` (stereo not shown) the MFC was greater than 64 µM (Candida albicans; microbial killing, broth dilution; 14936; 48 h).
`Oc1c(Cl)cc(Cl)cc1-c1[nH]c(Cl)c(Cl)c1Cl` has an MIC of 10.7 µM (Klebsiella aerogenes; microbial growth; ATCC35029).
`C[C@@H](O)[C@@H]1NC(=O)[C@H](Cc2ccccc2)NC(=O)[C@@H](Cc2ccccc2)NC(=O)[C@H](Cc2ccccc2)NC(=O)[C@@H](CCCN)NC(=O)[C@H](CCCCN)NC(=O)[C@@H](CCCCN)NC1=O` gave an IC50 of greater than 16 µg/mL (Balamuthia mandrillaris; parasite growth, ATP luminescence).
With `COC(=O)c1cc(-c2cccc(NC(=O)Nc3ccc(Cl)c(C(F)(F)F)c3)c2)on1` the MIC was greater than 64 µg/mL (Acinetobacter baumannii; microbial growth, broth dilution; BAA1605).
`C#Cc1ccc(O)c(C=NNC(=O)c2cc(Br)cc(Br)c2O)c1` has an MIC80 of 4 µg/mL (≈ 9.13 µM) (Aspergillus fumigatus; microbial growth; 48 h, pH 6.5).
`O=C(NNc1ccc(Cl)c(Cl)c1)c1nnc(C23CC4CC(CC(C4)C2)C3)o1` has an EC50 of greater than 12.5 µg/mL (Fusarium oxysporum; microbial growth).
The IC50 of `N=C(N)c1ccc(OCCCCCOc2ccc(C(=N)N)cc2)cc1` is reported as 5 µg/mL (Leishmania donovani; parasite growth; amastigote).
`O=C(NNc1cc(F)ccc1F)c1nnc(CC23CC4CC(CC(C4)C2)C3)o1` gave an inhibition of 100% (Sclerotinia sclerotiorum; microbial growth; 50 µg/mL).
With `CC(C)[C@@H]1NC(=O)[C@@H](CCCN)NC(=O)[C@H]([C@@H](C)O)NC(=O)[C@@H](CCCN)NC(=O)[C@H](Cc2ccccc2)NC(=O)[C@@H](C)NC(=O)[C@@H](C(C)C)NC(=O)[C@@H](C)NC(=O)[C@H](Cc2c[nH]c3ccccc23)NC(=O)[C@@H](Cc2c[nH]c3ccccc23)NC1=O` the IC50 was greater than 16 µg/mL (Balamuthia mandrillaris; parasite growth, ATP luminescence).
`C#Cc1ccc(O)c(C=NNC(=O)c2ccc(Br)cc2)c1` has an MIC80 of 2 µg/mL (≈ 5.83 µM) (Aspergillus fumigatus; microbial growth; 48 h, pH 6.5).
`C[C@@H](O)[C@@H]1NC(=O)[C@H](Cc2ccccc2)NC(=O)[C@@H](Cc2ccccc2)NC(=O)[C@H]([C@@H](C)O)NC(=O)[C@@H](CCCCN)NC(=O)[C@H](CC(=O)O)NC1=O` has an IC90 of greater than 16 µg/mL (Balamuthia mandrillaris; parasite growth, ATP luminescence).
`C[C@H]1COc2c(N3CCN(C)CC3)c(F)cc3c(=O)c(C(=O)O)cn1c23` has an MIC of 8 µg/mL (Acinetobacter baumannii; microbial growth, broth dilution; BAA1605).
`C#Cc1ccc(C=NNC(=O)c2ccc(COCC)cc2)c(O)c1` gave an MIC80 of 4 µg/mL (≈ 12.4 µM) (Aspergillus fumigatus; microbial growth; 48 h, pH 6.5).
For `CC(C)[C@@H]1NC(=O)[C@@H](CCCCN)NC(=O)[C@H](CCCN)NC(=O)[C@@H](CC(=O)O)NC(=O)[C@H](C)NC(=O)[C@H](Cc2c[nH]c3ccccc23)NC(=O)[C@@H](Cc2c[nH]c3ccccc23)NC1=O`, the IC90 was greater than 16 µg/mL (Balamuthia mandrillaris; parasite growth, ATP luminescence).

Excerpt of the above:
The MIC of `Oc1c(Br)cc(Br)cc1-c1[nH]c(Br)c(Br)c1Br` is reported as 16 µM (Klebsiella aerogenes; microbial growth; ATCC35029).
For `CC(C)[C@@H]1NC(=O)[C@@H](CCCNC(=N)N)NC(=O)[C@H]([C@@H](C)O)NC(=O)[C@@H](CCN)NC(=O)[C@H](Cc2ccccc2)NC(=O)[C@@H](Cc2ccccc2)NC1=O`, the IC50 was 9.42 µM (Balamuthia mandrillaris; parasite growth, ATP luminescence).
The MIC of `COC(=O)c1cc(-c2cccc(NC(=O)Nc3c(C)cccc3C)c2)on1` is reported as greater than 64 µg/mL (Mycobacteroides abscessus; microbial growth, broth dilution; ATCC19977; 48 h).
